Measured values pooled from the literature.
Numbered parts are unrelated; each lists some results of a single study.

Block 1
Target: Ras GTPase-activating protein-binding protein 1, full length (G3BP1, Homo sapiens, UniProt Q13283)
Chain of UniProt Q13283 (whole entry, looked up): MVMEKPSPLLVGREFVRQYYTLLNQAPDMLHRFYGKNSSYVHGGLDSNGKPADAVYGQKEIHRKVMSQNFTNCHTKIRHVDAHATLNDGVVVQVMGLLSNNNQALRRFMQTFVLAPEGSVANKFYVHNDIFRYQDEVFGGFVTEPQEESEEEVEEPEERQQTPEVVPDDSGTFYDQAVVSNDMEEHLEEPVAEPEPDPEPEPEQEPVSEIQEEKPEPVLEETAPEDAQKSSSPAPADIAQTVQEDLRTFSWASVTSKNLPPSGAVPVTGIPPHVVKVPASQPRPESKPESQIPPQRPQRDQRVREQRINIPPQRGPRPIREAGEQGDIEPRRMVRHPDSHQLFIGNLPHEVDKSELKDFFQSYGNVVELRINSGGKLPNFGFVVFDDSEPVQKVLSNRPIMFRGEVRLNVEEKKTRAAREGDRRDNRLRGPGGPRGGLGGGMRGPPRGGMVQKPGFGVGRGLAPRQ
Method: RNA Bind-n-Seq
Form: RNA
Matrix: in vitro
Concentration: 200 nM
Setting: whole 134-nt RNA, ends assumed
Together with: 150 mM LiCl
Relative to: input library
Reading: higher = stronger binding
Each molecule: 7-deaza-guanosine replaces G
All sequences stand within: GGGAGUUCUACAGUCCGACGAUC … UGGAAUUCUCGGGUGUCAAGG
Oligonucleotide	log2 enrichment
UGUGUCUUGCUGAAUCAGGGCUCUCUUAUCCCUGCCAUCGACUUACAGUGGGAAGAAGAUCUUCACCUGCACAGACCCGGGAACAGUCGG	-1.59
AAGUCCUGUGCUACACAUCGUAUGUACCGAAUCGGGAAAAAGGGUUUUUGGGUGGGAAAGUAUUAUGUUACGCCGUUCGGAUCUGCACUU	-0.746
CUGUGCUACACAUCGUAUGUACCGAAUCGGGAAAAAAAGGAAAAAAAGGGGAAAAAAAGGGAAAGUAUUAUGUUACGCCGUUCGGAUCUG	-0.0384
UCCUGUGCUACACAUCGUAUGUACCGAAUCGGGGAAAAAAGGGAAAAAAGGAAAAAAGGGAAAGUAUUAUGUUACGCCGUUCGGAUCUGC	0.317
CCUGUGCUACACAUCGUAUGUACCGAAUCGGGAAAAAAGGGAAAAAAGGGAAAAAAGGGGAAAGUAUUAUGUUACGCCGUUCGGAUCUGC	0.224
ACCAUGCAGGUGGGCAUCUUUGGGAAGUGGGGCAAGGGGGGGAUAGUGAGGGGGGUAACACUUUGGGAACAGGUGGUCCCAGGUCGUUUC	0.326
AAUGCCCACAAGGUCCCUCCCCCAUGGCUGAUUGCCAUGCAGCGAUAUGGACCACCCCCAUCGUAUCCCAACCUGAAAAUCCCUGGGCUG	0.651
GUCCUGUGCUACACAUCGUAUGUACCGAAUCGGGGUUUUUUUGGGGAGGGGAAAGGGGAAAGUAUUAUGUUACGCCGUUCGGAUCUGCAC	0.31

Block 2
Target: Histone acetyltransferase KAT6A, both winged helices, GST fusion (KAT6A, Homo sapiens, UniProt Q92794, residues 1-181)
Method: protein binding microarray
Form: double-stranded DNA, one strand shown
Matrix: in vitro
Concentration: not given
Setting: 8-mer, flanks averaged, mean of 2 arrays, mostly near background
Relative to: not given
Reading: higher = stronger binding
Construct (chain): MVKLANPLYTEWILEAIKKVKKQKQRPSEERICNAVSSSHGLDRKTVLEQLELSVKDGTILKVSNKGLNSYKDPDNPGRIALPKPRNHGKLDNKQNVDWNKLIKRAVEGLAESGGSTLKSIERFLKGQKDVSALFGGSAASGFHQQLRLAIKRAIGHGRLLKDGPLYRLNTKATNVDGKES
Oligonucleotide	E-score
ATAATAAT	-0.118
ACAGCATA	-0.00709
ACCCCCAA	-0.2
CATGGCGA	-0.0636
GGTCCAAC	-0.0587
AGACCTAG	-0.0426
CTTTCAGC	0.123
CGTACCAG	-0.0841
ATAGATCG	-0.0289
GGGGAAGA	-0.121
AGGATTTA	-0.0885
TGATCCAA	-0.13
CCCTGCGG	0.0379
TGATAAAA	0.106
TGAATGCA	-0.224
GTTGTTAA	0.0211
TCAGGCCA	-0.0444
ACCCGCAA	0.188
AATAAACT	0.101
CGATTCAA	-0.0106
CGAGTCTA	0.0475
TCAAAGGA	-0.113
ACCTCTGG	-0.278
CGCTGCTA	0.0308
TAGCACCA	-0.069

Block 3
Target: RNA binding protein fox-1 homolog 2, RRM domain, GST-SBP tag (RBFOX2, Homo sapiens, UniProt O43251-10, residues 100-194)
Method: RNA Bind-n-Seq
Form: RNA
Matrix: in vitro
Concentration: 365 nM
Setting: natural RNA segment, single round, ends assumed
Relative to: no-protein control
Reading: higher = stronger binding
All sequences stand within: GGGAGUUCUACAGUCCGACGAUC … UGGAAUUCUCGGGUGCCAA
Construct (chain): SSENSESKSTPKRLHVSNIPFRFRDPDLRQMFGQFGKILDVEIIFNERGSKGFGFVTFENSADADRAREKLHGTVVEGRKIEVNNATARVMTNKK
Oligonucleotide	RBNS enrichment (R)
GGGAAGGAGCAGGGAUGAGACUGGCAAUGGUCACAGGGAAAGAUGUGGCCUUUUGUGAUGGUUUUAUUUUCUGUUAACACUGUGUCCUGGGGGGGCUGGGAAGUCCCCUG	0.282
ACUCUGGUCCUUACAUCACAGAGAAAAGCCACCUUGCCCGUUUUUCCUCCAUUCUGUGAACUUCCCUGGUGAGAGAAGAAGGAGGACUGGGCAUGAACUGAGGAUUGUAU	0.493
GCCGGGCCCCCUGUGCCUCUAGCAUAUGUGUAUUGACUCUCAUAGUUACCCUUUUCGUUUACUGUGUUCUGUGAAAACUUGUAAUUGGUUGAGAAUCACUGUGGGCGUCC	0.321
UUGUAUAUUUGUAUUUUAUGACCAAGUAGACCAAGUCAGAAAGAUCUCUCUCGAGCGUACCAUAAACCUGCAGAGAGAAGUCUCGAAAGGCUCCACCAGGUACCAAGGGC	0.238
GAGUGCCUAUCUGUGCUCUUUCCUCCCUCUGCGGGCUUCUCUUGCUCUGAGCCUCCCUUCCCCAUUCCCCAUCCAGCUCCUUUCCCCCUGGGUUUCCUUGGCUUCCUGCA	3.51
CUACAAUAAACUGUGCCAAUUAAAAACCUAAGGCUAAAACUGAAAGCCCUUUGAUGGGGUCUUAACUCAUAUCAGUCAUUUGGGCUUCUCUGAUCCUGAGGCUAAGAAAG	0.397
AGGGUAAACCAGUAGGGAAUACAGUACAAUCCCAACCCUACUGGGAGGGGCGGGAGGGAGGUGUUGCCGUCACUGUAUUAAGUCGAUGUUGGGAAACGUUUUAACAUCUG	0.521
AAGCUGGACCUUUUCCCUUGCUGUACCAUAUUCAGCAUUUGAUUUCCAUGGGCCCCACCAUUUAUGUGUAGAAUUUGAAAUGGUUGUCACCUCUCUCUGAGGACAGAGCU	0.341

Block 4
Target: Interferon regulatory factor 7, full length, phosphomimetic (IRF7, Homo sapiens, UniProt Q92985, residues 1-503, S101K/S471D/S472D/S475D/S476D/S477D/S483D/S484D/S487D)
Chain of UniProt Q92985 (whole entry, unmodified, looked up): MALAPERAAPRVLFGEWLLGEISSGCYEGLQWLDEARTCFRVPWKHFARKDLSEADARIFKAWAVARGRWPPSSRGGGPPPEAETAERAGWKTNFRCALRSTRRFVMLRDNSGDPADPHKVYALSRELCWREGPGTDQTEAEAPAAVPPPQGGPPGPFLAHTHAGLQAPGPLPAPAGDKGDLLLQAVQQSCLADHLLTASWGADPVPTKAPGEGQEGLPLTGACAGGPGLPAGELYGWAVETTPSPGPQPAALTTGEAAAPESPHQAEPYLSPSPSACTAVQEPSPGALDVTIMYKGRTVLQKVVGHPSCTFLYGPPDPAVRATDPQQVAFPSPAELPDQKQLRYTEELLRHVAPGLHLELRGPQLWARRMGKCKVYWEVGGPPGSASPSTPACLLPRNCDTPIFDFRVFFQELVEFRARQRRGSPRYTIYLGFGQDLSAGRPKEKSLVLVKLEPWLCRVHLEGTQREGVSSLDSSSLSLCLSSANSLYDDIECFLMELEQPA
Method: protein-binding microarray
Form: double-stranded DNA, one strand shown
Matrix: in vitro
Concentration: 250 nM
Setting: 60-bp whole probe
Together with: salmon DNA 0.4 mg/ml
Relative to: random background probes
Reading: higher = stronger binding
All sequences stand within: GCCTAGCAC … GTCTTGATTCGCTTGACGCTGCTG
Oligonucleotide	log fluorescence [z-score]
GACGGCCTGCTACTGCTGACGTGCTAG	-0.972
TCATCTTCTCCTCTAGGACTGTGCTAG	0.858
TCACCTCTTTCTTTGCTACTGTGCTAG	1.04
TTAGATTTCGGGTTTCGATTCGTGCTA	11.4
GACGGTATCGTCTATCGGGACGTGCTA	-0.397
TTAGAACTGAGTCGCGATTAGTGCTAG	0.465
CCTTATCCCTAATCTCAGCCTGTGCTA	1.24
TTAGATTTCGGGTTTCGATCAGTGCTA	4.4
TTAGGACTGGGGACCGGGTTAGTGCTA	-0.0284
TTAGGACTGCTTTTCCTCTAGTGCTAG	1.31
TTAGGTCTCGGTTTCGTTTAGTGCTAG	11.5
GACGAATTGAGTATCGAGACGTGCTAG	0.000939
TGATGTCTGGGTCTTGGTTCGTGCTAG	-0.0944
TTAGGAATGGACTATCGGTTAGTGCTA	-0.0805
TGCTTTCTCCCAAGTCTTGTTGTGCTA	1.79
TATCAGTTTAATATCTAAGAGTGCTAG	0.231
TTATGTATCCTACTGCTTTAGTGCTAG	0.158
TTAGGTTACCTTATCCTTTAGTGCTAG	0.42
TTAGGTATCCTTCTTCTTTAGTGCTAG	0.566

Excerpt of the above (block 4):
Oligonucleotide	log fluorescence [z-score]
TTAGGACTGGGGACCGGGTTAGTGCTA	-0.0284
TTAGGACTGCTTTTCCTCTAGTGCTAG	1.31
TTAGGTCTCGGTTTCGTTTAGTGCTAG	11.5
GACGAATTGAGTATCGAGACGTGCTAG	0.000939
TGATGTCTGGGTCTTGGTTCGTGCTAG	-0.0944
TTAGGAATGGACTATCGGTTAGTGCTA	-0.0805
TGCTTTCTCCCAAGTCTTGTTGTGCTA	1.79
